Measured values collected from several papers.
Numbered parts are unrelated; each lists some results of a single study.
Chain of UniProt P21917 (whole entry, looked up): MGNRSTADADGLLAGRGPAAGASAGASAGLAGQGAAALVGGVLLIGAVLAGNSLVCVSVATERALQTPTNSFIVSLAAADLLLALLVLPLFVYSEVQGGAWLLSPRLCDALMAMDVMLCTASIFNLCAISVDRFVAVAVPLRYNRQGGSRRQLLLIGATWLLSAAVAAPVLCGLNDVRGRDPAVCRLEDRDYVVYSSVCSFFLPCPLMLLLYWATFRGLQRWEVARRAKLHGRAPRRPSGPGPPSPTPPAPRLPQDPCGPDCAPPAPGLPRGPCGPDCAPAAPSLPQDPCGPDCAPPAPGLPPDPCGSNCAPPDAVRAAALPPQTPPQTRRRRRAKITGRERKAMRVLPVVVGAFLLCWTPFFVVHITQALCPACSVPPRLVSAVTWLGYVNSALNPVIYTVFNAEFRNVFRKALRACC
Chain of UniProt P50406 (whole entry, looked up): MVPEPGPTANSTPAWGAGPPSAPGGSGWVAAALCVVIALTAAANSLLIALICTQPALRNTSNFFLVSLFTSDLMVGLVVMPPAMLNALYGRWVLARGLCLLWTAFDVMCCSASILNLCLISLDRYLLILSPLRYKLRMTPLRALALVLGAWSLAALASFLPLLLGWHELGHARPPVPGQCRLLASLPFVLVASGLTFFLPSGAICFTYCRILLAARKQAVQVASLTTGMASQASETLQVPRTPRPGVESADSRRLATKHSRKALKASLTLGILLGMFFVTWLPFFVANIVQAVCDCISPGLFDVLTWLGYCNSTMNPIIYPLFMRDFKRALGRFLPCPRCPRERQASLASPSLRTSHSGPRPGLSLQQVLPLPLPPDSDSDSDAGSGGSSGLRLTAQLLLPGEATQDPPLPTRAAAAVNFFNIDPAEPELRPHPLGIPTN
Chain of UniProt P49674 (whole entry, looked up): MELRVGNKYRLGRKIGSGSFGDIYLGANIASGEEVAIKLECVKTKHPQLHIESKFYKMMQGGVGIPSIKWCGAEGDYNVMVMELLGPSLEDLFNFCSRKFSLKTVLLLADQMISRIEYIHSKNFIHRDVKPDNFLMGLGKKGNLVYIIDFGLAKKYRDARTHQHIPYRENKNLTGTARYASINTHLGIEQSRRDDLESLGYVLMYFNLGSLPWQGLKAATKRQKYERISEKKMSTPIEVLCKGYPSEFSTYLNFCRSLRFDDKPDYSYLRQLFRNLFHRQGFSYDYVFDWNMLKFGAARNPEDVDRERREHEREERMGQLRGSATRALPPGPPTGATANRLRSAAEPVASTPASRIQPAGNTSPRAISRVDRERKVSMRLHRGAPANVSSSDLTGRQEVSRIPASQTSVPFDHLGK
Chain of UniProt O75676 (whole entry, looked up): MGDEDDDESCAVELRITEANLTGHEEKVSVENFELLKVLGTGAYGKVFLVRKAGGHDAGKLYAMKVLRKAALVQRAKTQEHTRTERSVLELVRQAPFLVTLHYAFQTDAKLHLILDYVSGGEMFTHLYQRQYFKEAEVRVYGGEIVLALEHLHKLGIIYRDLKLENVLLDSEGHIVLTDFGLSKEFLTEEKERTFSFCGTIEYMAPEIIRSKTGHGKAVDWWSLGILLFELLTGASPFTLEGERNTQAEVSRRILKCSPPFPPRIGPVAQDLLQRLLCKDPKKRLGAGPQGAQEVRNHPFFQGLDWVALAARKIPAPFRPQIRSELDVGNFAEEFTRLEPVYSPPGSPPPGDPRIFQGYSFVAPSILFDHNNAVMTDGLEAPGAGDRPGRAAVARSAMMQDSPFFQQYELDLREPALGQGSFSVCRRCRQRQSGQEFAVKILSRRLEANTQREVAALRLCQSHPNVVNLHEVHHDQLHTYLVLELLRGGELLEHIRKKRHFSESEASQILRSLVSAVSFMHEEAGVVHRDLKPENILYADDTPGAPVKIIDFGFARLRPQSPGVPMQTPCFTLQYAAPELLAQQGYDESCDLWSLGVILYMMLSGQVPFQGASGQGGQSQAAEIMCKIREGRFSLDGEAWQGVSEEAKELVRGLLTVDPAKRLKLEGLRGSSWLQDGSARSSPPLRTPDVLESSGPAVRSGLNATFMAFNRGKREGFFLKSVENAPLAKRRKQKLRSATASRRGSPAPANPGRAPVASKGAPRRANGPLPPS
Chain of UniProt Q9BRS2 (whole entry, looked up): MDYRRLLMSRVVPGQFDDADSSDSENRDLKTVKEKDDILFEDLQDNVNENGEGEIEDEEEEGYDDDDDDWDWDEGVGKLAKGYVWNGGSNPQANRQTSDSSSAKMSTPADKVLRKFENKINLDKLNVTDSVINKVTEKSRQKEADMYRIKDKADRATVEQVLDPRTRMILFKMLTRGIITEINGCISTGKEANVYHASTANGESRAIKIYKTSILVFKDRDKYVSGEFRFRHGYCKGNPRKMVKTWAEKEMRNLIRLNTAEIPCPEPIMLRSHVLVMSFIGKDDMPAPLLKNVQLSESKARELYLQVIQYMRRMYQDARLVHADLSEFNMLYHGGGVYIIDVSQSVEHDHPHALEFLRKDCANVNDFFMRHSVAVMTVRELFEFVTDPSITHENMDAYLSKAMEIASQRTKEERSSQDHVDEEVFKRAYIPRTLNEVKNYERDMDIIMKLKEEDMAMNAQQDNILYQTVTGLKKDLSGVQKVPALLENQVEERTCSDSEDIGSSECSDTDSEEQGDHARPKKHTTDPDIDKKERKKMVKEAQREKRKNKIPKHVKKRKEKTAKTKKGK
Chain of UniProt Q99720 (whole entry, looked up): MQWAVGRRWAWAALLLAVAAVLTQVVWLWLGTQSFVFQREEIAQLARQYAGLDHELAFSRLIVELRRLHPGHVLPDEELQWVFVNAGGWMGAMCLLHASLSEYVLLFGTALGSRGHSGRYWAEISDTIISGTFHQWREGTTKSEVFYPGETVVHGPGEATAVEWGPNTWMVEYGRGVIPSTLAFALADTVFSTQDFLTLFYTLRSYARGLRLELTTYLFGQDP
Chain of UniProt Q07912 (whole entry, looked up): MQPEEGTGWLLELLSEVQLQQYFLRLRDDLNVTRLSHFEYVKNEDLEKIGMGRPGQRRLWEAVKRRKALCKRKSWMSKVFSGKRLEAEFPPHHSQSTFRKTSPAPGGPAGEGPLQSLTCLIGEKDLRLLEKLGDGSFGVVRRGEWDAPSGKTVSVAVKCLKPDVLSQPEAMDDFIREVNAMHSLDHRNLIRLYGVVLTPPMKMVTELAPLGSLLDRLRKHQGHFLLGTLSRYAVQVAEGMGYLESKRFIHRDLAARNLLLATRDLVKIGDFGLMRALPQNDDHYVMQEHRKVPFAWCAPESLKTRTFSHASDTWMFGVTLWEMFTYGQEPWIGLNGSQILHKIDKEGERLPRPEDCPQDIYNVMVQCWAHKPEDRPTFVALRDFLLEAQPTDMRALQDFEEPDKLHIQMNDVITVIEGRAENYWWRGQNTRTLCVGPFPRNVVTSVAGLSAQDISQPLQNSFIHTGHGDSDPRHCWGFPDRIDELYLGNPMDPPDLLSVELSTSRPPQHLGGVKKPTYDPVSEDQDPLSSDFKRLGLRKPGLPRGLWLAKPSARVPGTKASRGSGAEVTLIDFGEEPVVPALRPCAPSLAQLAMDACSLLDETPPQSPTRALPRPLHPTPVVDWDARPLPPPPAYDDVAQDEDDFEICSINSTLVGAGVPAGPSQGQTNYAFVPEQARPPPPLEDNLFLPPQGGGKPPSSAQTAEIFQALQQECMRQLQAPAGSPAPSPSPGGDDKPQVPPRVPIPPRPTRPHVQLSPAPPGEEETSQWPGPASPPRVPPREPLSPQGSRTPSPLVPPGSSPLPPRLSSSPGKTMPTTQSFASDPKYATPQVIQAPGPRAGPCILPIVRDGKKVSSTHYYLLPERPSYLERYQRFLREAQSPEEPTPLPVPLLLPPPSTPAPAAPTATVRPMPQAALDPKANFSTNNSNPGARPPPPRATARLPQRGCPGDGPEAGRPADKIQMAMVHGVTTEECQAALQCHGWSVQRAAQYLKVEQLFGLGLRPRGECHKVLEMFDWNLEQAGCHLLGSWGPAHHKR
Chain of UniProt P35462 (whole entry, looked up): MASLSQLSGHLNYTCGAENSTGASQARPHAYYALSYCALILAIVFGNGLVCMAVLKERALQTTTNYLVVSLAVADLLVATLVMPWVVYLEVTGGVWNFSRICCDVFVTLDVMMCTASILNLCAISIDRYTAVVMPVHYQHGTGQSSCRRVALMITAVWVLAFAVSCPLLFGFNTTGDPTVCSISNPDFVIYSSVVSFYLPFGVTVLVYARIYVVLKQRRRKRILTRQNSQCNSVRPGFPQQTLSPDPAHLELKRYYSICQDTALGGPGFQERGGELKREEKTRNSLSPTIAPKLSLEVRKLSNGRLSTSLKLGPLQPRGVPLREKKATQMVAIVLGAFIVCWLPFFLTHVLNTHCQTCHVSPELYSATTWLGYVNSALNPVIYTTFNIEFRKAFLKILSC
Chain of UniProt P07550 (whole entry, looked up): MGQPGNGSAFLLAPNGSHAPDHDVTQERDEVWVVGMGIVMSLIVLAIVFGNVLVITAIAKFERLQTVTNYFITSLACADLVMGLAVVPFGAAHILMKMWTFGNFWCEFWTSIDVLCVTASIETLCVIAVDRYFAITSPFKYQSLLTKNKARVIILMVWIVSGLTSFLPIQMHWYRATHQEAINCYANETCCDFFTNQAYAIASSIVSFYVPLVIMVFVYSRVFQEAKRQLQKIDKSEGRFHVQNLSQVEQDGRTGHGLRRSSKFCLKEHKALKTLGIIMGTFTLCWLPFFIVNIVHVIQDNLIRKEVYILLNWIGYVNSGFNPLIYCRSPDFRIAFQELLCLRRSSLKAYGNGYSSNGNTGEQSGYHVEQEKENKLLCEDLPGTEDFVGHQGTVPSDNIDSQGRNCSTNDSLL
Chain of UniProt Q96PN8 (whole entry, looked up): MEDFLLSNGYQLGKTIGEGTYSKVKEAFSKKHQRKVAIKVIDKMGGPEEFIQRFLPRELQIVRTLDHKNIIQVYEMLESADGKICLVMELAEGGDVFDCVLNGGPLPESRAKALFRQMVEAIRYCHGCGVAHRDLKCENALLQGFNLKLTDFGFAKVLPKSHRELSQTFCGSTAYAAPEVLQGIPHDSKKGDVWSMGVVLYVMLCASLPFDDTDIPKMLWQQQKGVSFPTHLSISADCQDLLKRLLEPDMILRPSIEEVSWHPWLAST

Study 1
SMILES: CC(=O)C1=C(C)N(c2cccc(C(F)(F)F)c2)C(=O)N[C@@H]1c1ccc(C#N)nc1
Effect on: binding
Method: radioligand binding
Tested at: 10 µM
Quantity: inhibition
HTR2B (Homo sapiens, UniProt P41595): 6.06%
HTR6 (Homo sapiens, UniProt P50406): -6.02%
ADRA2A (Homo sapiens, UniProt P08913): 10.5%
SIGMAR1 (Homo sapiens, UniProt Q99720): -18.6%
TMEM97 (Homo sapiens, UniProt Q5BJF2): 35.9%
ADRA1A (Homo sapiens, UniProt P35348): -14.2%
DRD4 (Homo sapiens, UniProt P21917): 15.9%
ADRB2 (Homo sapiens, UniProt P07550): 24.3%
DRD2 (Homo sapiens, UniProt P14416): 0.569%
DRD3 (Homo sapiens, UniProt P35462): -17.7%
CHRM5 (Homo sapiens, UniProt P08912): -6.78%
ADRB1 (Homo sapiens, UniProt P08588): 60%

Study 2
Target: Dual serine/threonine and tyrosine protein kinase (DSTYK, Homo sapiens, UniProt Q6XUX3)
Effect on: enzyme activity
Action: inhibitor
Tested at: 0.5 µM
Relative to: control
Quantity: remaining activity
Construct (Q6XUX3 1-929): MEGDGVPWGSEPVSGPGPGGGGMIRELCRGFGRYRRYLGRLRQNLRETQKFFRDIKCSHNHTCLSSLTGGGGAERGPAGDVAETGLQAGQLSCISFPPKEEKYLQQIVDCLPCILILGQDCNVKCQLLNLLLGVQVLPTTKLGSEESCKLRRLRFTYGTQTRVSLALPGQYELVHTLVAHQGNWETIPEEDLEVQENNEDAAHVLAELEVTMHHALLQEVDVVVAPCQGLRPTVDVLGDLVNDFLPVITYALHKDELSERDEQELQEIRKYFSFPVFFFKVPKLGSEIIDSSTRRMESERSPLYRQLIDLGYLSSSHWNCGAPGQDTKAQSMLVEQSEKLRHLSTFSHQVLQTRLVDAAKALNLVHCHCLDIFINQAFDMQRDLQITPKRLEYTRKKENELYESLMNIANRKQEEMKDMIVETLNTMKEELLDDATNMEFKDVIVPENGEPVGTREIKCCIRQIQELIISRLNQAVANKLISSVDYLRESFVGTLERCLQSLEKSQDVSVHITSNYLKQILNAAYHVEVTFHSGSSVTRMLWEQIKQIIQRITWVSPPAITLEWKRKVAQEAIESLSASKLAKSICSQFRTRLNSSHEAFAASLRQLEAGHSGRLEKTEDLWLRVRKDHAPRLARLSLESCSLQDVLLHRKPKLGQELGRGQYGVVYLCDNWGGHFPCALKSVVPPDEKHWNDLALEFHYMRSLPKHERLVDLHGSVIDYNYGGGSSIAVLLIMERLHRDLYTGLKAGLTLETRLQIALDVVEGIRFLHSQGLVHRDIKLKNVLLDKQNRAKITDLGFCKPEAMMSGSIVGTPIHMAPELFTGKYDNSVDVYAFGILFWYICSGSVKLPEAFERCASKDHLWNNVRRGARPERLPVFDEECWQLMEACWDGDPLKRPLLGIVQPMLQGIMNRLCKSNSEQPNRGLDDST
O=c1c(-c2ccc(F)cc2)c(-c2ccncc2)[nH]n1-c1ccc(Cl)cc1: 92.9%
COc1cc2c(Nc3ccc(Br)cc3F)ncnc2cc1OCC1CCN(C)CC1: 96%
N#CC(c1ccnc(NCCc2cccnc2)n1)c1nc2ccccc2s1 (centres unmarked): 93.4%
NC(=O)c1cccc(-c2cc(Nc3ccc(OC(F)(F)F)cc3)ncn2)c1: 95.8%
Nc1nc(Nc2ccc(S(N)(=O)=O)cc2)nn1C(=S)Nc1c(F)cccc1F: 17.8%
CCCCc1c(-c2ccc(O)cc2)[nH]c2nccnc12: 88.9%
Clc1ccc(Nc2nnc(Cc3ccncc3)c3ccccc23)cc1: 96.5%
O=C1NC(=O)/C(=C/c2ccc3c(c2)OC(F)(F)O3)S1: 89.3%
O=C1c2ccccc2-c2nc3nnnn3nc21: 81.5%
O=C(O)/C=C/c1cc(Br)c(Br)c(Br)c1Br: 98.2%
NC(=O)c1ccc(-c2nc(-c3ccc4c(c3)OCCO4)c(-c3ccccn3)[nH]2)cc1: 93.1%
c1cc(-c2cnn3cc(-c4ccc(OCCN5CCCCC5)cc4)cnc23)ccn1: 98.3%
COc1cc2c(N3CCN(C(=O)Nc4ccc(OC(C)C)cc4)CC3)ncnc2cc1OCCCN1CCCCC1: 92.7%
CCN(CC)CCCCN1c2ccccc2Oc2ccc(Cl)cc21: 106%
CNc1cc2c(Nc3cccc(Br)c3)ncnc2cn1: 94.1%
CC(C)N(CCC(=O)c1ccc2ccccc2c1)Cc1ccccc1: 84.9%
CC(C)(C)c1nc2c3cc[nH]c(=O)c3c3cc(F)ccc3c2[nH]1: 62%
CC(C)n1cnc2c(Nc3cccc(Cl)c3)nc(NCCO)nc21: 97%
C[C@@H](N)[C@H]1CC[C@H](C(=O)Nc2ccncc2)CC1: 101%
O=C(c1ccccc1)c1ccc(N2CCOCC2)cc1O: 86.2%
O=Nc1c(-c2c(O)[nH]c3ccccc23)[nH]c2ccccc12: 108%
N#C/C(=C(/N)SC1C=CC=CC1)c1cccc(C(O)c2ccncc2)c1 (centres unmarked): 109%
FC(F)(F)c1ccc(/C=C/c2nc(COc3ccc(CCCCn4ccnn4)cc3)co2)cc1: 88.8%

Study 3
SMILES: O=C(Nc1ccccc1)Nc1cccc(Oc2ccc3nccn3n2)c1
Tested at: 1 µM
Quantity: remaining binding
CDC42BPG (Homo sapiens, UniProt Q6DT37); competitive binding panel, measured: DMPK2; relative to: vehicle: 100%
TSSK3 (Homo sapiens, UniProt Q96PN8); competitive binding panel; relative to: vehicle: 100%
STK10 (Homo sapiens, UniProt O94804); competitive binding; LOK: 82%
PIK3C3 (Homo sapiens, UniProt Q8NEB9); competitive binding panel, measured: VPS34; relative to: vehicle: 100%
RPS6KA4 (Homo sapiens, UniProt O75676); competitive binding scan; C-terminal kinase domain 2: 100%
MAP3K1 (Homo sapiens, UniProt Q13233); competitive binding panel; relative to: vehicle: 100%
TESK1 (Homo sapiens, UniProt Q15569); competitive binding panel; relative to: vehicle: 100%
TNK2 (Homo sapiens, UniProt Q07912); competitive binding panel; relative to: vehicle: 100%
ROCK1 (Homo sapiens, UniProt Q13464); competitive binding panel; relative to: vehicle: 100%
RIOK1 (Homo sapiens, UniProt Q9BRS2); competitive binding panel; relative to: vehicle: 52%
SYK (Homo sapiens, UniProt P43405); competitive binding panel; relative to: vehicle: 88%
HASPIN (Homo sapiens, UniProt Q8TF76); competitive binding panel; relative to: vehicle: 96%
CSNK1E (Homo sapiens, UniProt P49674); competitive binding panel; relative to: vehicle: 100%
CAMKK1 (Homo sapiens, UniProt Q8N5S9); competitive binding panel; relative to: vehicle: 100%

Study 4
Organism: Plasmodium berghei
Action: inhibitor
Cell line: Huh-7
Strain: GFP-expressing, liver stage
Tested at: 10 µM
Time: 24 h
Relative to: untreated control
Quantity: infection rate
OCc1ccccc1O[C@@H]1O[C@H](CO)[C@@H](O)[C@H](O)[C@H]1O: 104%
CN(C)[C@@H]1C(O)=C(C(N)=O)C(=O)[C@@]2(O)C(O)=C3C(=O)c4c(O)cccc4[C@@](C)(O)[C@H]3C[C@@H]12: 65%
Cc1nc2sccn2c(=O)c1CCN1CCC(=C(c2ccc(F)cc2)c2ccc(F)cc2)CC1: 69.7%
CCCCNC(=O)NS(=O)(=O)c1ccc(C)cc1: 108%
CCOc1ccc(NC(C)=O)cc1: 103%
CC1(C)O[C@@H]2[C@@H](CO[C@@]3(COS(N)(=O)=O)OC(C)(C)O[C@@H]23)O1: 106%
CCCCOc1ccc(OCCCN2CCOCC2)cc1: 87.7%
O=C(Nc1ccccc1)c1ccccc1O: 35.4%
O=P(O)(O)C(O)(Cc1cccnc1)P(=O)(O)O: 83.7%
N[C@@H](CC(=O)N1CCn2c(nnc2C(F)(F)F)C1)Cc1cc(F)c(F)cc1F: 79.1%
CC1(C)S[C@@H]2[C@H](NC(=O)Cc3ccccc3)C(=O)N2[C@H]1C(=O)O: 100%
Nc1ccc(S(=O)(=O)Nc2ccc(Cl)nn2)cc1: 87.1%
C[C@]12C=CC(=O)C=C1CC[C@@H]1[C@@H]2C(=O)C[C@@]2(C)[C@H]1CC[C@]2(O)C(=O)CO: 89.2%
CCCCC1C(=O)N(c2ccccc2)N(c2ccccc2)C1=O: 94.1%
Oc1cccc(O)c1: 108%
C[N+]1(CCCCC[N+]2(C)CCCC2)CCCC1: 95.8%

Some of these lines once more (study 3):
RPS6KA4 (Homo sapiens, UniProt O75676); competitive binding scan; C-terminal kinase domain 2: 100%
CDC42BPG (Homo sapiens, UniProt Q6DT37); competitive binding panel, measured: DMPK2; relative to: vehicle: 100%
HASPIN (Homo sapiens, UniProt Q8TF76); competitive binding panel; relative to: vehicle: 96%
ROCK1 (Homo sapiens, UniProt Q13464); competitive binding panel; relative to: vehicle: 100%
SYK (Homo sapiens, UniProt P43405); competitive binding panel; relative to: vehicle: 88%
MAP3K1 (Homo sapiens, UniProt Q13233); competitive binding panel; relative to: vehicle: 100%
PIK3C3 (Homo sapiens, UniProt Q8NEB9); competitive binding panel, measured: VPS34; relative to: vehicle: 100%
